Experimental data pooled from the literature.
Every numbered part comes from another study and shows a few of its results, in no order. Values joined by “and” are separate records of one study, mostly repeats; a detail may differ. Positions count from the first letter of the parent shown.
UniProt O14757, sequence (whole entry, looked up): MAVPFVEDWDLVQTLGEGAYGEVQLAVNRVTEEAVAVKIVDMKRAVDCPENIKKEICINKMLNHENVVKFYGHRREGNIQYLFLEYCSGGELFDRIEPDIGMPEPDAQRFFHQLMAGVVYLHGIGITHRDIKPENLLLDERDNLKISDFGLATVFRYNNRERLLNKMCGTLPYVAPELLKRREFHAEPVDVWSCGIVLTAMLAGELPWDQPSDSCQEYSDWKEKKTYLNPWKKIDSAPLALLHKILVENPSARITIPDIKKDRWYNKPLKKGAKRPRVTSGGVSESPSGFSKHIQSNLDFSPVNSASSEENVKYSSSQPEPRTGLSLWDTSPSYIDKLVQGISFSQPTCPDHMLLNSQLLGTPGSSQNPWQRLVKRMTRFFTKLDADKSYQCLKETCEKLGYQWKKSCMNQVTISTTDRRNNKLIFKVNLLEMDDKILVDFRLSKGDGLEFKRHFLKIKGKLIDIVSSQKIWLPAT

Study 1 — technique: DHFR PCA, dose-response; sample: yeast; notes: Hill fit, mean, not affinity; together with: (+)-ABA, dose series; direction: lower = more sensitive; endpoint: ABA EC50
Target: ABI1, truncated, D143A, DHFR fusion (Arabidopsis thaliana, UniProt P49597)
Starting sequence: PYL1, truncated, DHFR fusion (Arabidopsis thaliana, UniProt Q8VZS8); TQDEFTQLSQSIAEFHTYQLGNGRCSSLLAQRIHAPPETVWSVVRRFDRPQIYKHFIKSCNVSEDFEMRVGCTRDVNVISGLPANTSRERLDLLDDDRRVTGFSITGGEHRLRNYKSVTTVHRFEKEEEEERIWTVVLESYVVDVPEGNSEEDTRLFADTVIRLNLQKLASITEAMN
Substitution = V40C; result = 79.4 µM
Substitution = G81S; result = 150 µM
Substitution = G21Y; result = 6.87 µM
Substitution = F124N; result = 20 µM
Substitution = I33F; result = 480 µM
Substitution = K168Q; result = 2.5 µM
Substitution = E64F; result = 5.74 µM
Substitution = R98T; result = 18.6 µM

Study 2 — technique: RNA Bind-n-Seq; molecule type: RNA; sample: in vitro; tested at: 365 nM; relative to: no-protein control; direction: higher = stronger binding; endpoint: RBNS enrichment (R)
Target: RNA binding protein fox-1 homolog 2, RRM domain, GST-SBP tag (RBFOX2, Homo sapiens, UniProt O43251-10, residues 100-194)
Notes: natural RNA segment, single round, ends assumed
Oligonucleotide = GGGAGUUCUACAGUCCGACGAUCCGGCUUUCUCCGAUGAAGACAUUAUAGACUUGAAGUAACAGAGUUGAAUCUCAUUUGCCAUCUUUAGUUUUCUUAUGGAGGUUUAUACUCUUUAAACAGUUCUGAUGUAAUGGAAUUCUCGGGUGCCAA; result = 0.592
Oligonucleotide = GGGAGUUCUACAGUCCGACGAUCACCUGCACUUAGAGGAAAUUUGAACAAGUUGGAAAAAAACAAUUUUUGUUUCAAUUCUAAGAAACACUUGCAGCUCUAGUAUUCACUUGAGUCUUCCUGUUUUUCCUGUAUGGAAUUCUCGGGUGCCAA; result = 0.375
Oligonucleotide = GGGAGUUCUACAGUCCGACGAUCGAAUACUUUUGCCCUUUGAUUAAAGACUCCAGUUAAAAAAAAUUUUAAUGAAGAAAGUGGAAAACAAGGAAGUCAAAGCAAGGAAACUAUGUAACAUGUAGGAAGUAGGAUGGAAUUCUCGGGUGCCAA; result = 0.677
Oligonucleotide = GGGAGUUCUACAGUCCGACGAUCUACCCCAAGCUACAGUGGGGGCCCAUGGCCCCAGCUUGCUAGGUCACCCUCCACCCCUCCUCCAGCGCCUGCUCUCUGCAACCUGACUUCCACCUCUAUCUCUCUUUCUCUGGAAUUCUCGGGUGCCAA; result = 1.66
Oligonucleotide = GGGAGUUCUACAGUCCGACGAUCUGAAUGGUUUUCCCAGUUCCCACUCCACAUGGGGAAGUUGAAUGAAUGCACACCUGCUGCUCACUUCUUGUGAGGCUGCCUUUUGUGAUCAAAUAACAGGAAGUUCUGCUUGGAAUUCUCGGGUGCCAA; result = 0.482
Oligonucleotide = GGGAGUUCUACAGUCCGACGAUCCUGAGGACAGAUUCAUCCAACUUUAACCCCCAGGAACACUGGAAUGUAGGCUGCCAGAUGGGGGCUAUGAAUAUGCAGACUGCAGGAAGUGCAAUGGAUAUCUGUGAUGGUGGAAUUCUCGGGUGCCAA; result = 0.905
Oligonucleotide = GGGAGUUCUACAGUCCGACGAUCCACCUUGUUCAGUGCCUGUCUAACAUGGCUAGCUACAAGGCAAUGUUGUCUCCUCCUAAUGUCCACCUCAGUGACGAGGUUCCACACUGUCUCCUCACCUCUUGUCACGGUGGAAUUCUCGGGUGCCAA; result = 0.433
Oligonucleotide = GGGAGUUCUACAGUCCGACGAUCACCGAGCCUGGCACAGCUCCCCUAUCCAUUGCCAGAUGAAUGUAUAAUGCUAGAUGAAGCUGUGAACCCCCCCCCCCCCUCCUGCUGAUAGAGCAGGGCAUGGGUGCUGGUGGAAUUCUCGGGUGCCAA; result = 1.45

Single results of other studies
SMILES = CN(C)CC#Cc1ccc(OCCCc2sc(N3CCc4cccc(C(=O)Nc5nc6ccccc6s5)c4C3)nc2C(=O)O)c(F)c1; tested on = normal organoid sample D; assay = CellTiter-Glo; test system = human, normal-adjacent epithelium; setting = 1 µM; scale = relative to: DMSO; endpoint = viability; result = 39% and 125%
SMILES = Cn1cc(/C=C2\C(=O)Nc3ccc(S(N)(=O)=O)cc32)c2ccccc21; tested on = CHEK1 (Homo sapiens, UniProt O14757); assay = enzyme activity, inhibitor; setting = 0.5 µM; scale = relative to: control; endpoint = remaining activity; result = 19.5%
SMILES = CC(=O)C1=C(C)N(c2cccc(C(F)(F)F)c2)C(=O)N[C@@H]1c1ccc(C#N)nc1; tested on = normal organoid sample D; assay = CellTiter-Glo; test system = human, normal-adjacent epithelium; setting = 1 µM; scale = relative to: DMSO; endpoint = viability; result = 112%

Some of these lines once more (study 2):
Oligonucleotide = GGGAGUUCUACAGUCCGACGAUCCUGAGGACAGAUUCAUCCAACUUUAACCCCCAGGAACACUGGAAUGUAGGCUGCCAGAUGGGGGCUAUGAAUAUGCAGACUGCAGGAAGUGCAAUGGAUAUCUGUGAUGGUGGAAUUCUCGGGUGCCAA; result = 0.905
Oligonucleotide = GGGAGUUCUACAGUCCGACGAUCCACCUUGUUCAGUGCCUGUCUAACAUGGCUAGCUACAAGGCAAUGUUGUCUCCUCCUAAUGUCCACCUCAGUGACGAGGUUCCACACUGUCUCCUCACCUCUUGUCACGGUGGAAUUCUCGGGUGCCAA; result = 0.433
